# Published values gathered from unrelated publications.
# Numbered parts are unrelated; each lists some results of a single study. Values joined by “and” are separate records of one study, mostly repeats; a detail may differ.
# UniProt Q15349, sequence (whole entry, looked up): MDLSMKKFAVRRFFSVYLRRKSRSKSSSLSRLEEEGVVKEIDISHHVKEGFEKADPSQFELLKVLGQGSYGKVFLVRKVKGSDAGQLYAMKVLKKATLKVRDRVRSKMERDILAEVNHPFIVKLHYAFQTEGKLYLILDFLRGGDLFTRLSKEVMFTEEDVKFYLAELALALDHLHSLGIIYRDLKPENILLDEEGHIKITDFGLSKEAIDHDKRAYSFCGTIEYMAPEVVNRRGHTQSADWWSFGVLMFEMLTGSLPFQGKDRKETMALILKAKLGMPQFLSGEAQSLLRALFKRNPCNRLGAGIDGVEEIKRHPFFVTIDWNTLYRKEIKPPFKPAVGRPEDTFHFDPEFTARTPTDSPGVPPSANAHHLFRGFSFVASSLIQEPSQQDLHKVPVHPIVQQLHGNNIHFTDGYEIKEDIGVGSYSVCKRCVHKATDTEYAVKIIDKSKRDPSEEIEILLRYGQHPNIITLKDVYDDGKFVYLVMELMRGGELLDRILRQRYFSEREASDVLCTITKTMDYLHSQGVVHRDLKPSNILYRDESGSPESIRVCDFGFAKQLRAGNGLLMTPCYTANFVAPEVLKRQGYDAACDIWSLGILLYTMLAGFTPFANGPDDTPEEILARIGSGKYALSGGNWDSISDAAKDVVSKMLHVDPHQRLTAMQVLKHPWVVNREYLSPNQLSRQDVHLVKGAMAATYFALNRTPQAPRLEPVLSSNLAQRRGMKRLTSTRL
# UniProt Q13546, sequence (whole entry, looked up): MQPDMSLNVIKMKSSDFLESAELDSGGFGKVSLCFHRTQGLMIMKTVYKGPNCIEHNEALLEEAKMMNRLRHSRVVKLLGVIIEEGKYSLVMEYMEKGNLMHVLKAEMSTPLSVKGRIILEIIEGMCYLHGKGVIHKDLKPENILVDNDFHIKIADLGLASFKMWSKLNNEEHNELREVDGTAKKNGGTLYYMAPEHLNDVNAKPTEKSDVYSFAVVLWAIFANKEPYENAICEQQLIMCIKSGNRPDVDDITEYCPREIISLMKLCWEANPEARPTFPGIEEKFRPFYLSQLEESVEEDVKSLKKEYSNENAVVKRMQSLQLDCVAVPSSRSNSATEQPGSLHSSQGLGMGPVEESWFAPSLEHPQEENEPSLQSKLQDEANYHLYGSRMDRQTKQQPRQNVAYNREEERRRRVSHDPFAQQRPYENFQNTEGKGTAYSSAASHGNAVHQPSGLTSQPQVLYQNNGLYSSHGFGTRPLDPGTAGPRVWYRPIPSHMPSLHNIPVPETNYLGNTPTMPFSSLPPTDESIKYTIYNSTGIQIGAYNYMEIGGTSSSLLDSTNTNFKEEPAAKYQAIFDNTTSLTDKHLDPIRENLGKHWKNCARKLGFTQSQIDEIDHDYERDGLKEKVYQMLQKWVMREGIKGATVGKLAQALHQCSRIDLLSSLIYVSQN
# UniProt P53667, sequence (whole entry, looked up): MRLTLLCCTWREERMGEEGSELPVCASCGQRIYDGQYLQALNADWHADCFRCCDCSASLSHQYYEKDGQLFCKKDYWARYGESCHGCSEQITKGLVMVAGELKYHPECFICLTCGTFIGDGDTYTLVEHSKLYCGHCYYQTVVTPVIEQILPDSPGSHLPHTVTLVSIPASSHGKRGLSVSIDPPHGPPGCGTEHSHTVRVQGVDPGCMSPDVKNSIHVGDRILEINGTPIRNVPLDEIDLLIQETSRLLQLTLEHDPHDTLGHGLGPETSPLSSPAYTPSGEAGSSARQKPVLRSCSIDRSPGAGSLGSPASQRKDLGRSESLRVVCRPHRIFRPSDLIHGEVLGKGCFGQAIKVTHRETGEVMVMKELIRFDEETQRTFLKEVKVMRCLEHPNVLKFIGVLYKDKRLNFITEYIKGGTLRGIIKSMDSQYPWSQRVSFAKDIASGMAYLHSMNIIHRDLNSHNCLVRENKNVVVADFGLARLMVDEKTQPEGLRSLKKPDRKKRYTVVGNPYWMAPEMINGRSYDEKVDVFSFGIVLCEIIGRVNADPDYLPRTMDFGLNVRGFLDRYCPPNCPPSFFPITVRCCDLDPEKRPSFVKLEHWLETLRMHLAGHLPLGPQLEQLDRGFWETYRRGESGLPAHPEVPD
# UniProt P29597, sequence (whole entry, looked up): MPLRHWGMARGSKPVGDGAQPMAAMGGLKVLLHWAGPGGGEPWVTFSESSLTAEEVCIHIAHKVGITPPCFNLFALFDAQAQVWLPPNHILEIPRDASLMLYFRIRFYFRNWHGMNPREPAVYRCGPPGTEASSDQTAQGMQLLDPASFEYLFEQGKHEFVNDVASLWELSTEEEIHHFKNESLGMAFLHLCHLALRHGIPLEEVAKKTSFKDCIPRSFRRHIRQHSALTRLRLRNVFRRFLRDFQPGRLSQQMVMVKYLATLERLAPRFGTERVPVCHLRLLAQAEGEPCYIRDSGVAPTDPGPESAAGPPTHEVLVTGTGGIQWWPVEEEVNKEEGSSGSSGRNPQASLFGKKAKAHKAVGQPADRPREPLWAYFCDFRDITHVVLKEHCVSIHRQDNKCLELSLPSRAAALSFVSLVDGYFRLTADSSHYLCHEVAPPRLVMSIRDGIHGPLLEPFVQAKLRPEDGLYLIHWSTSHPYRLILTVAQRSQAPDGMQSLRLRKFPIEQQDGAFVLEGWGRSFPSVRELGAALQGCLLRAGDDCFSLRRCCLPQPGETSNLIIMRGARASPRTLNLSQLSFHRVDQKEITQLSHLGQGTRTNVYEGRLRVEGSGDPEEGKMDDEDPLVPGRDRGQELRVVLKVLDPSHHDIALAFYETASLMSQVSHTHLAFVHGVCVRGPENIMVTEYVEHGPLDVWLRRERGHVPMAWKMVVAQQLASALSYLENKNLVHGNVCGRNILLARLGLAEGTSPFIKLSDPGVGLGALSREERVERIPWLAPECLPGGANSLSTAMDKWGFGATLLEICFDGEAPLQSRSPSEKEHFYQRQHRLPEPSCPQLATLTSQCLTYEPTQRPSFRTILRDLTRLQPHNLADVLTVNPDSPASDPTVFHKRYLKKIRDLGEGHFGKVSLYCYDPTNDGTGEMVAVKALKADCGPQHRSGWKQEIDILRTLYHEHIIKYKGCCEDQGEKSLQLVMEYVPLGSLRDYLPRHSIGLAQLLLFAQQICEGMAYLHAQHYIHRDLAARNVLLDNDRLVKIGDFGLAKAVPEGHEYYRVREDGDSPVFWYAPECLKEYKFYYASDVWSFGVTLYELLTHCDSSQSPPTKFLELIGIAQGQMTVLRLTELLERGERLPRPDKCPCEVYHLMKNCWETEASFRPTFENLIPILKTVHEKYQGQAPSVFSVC

# Series 1 — concentration: 1 µM
# SMILES: CC[C@@]1(c2cccc(-c3c(F)cncc3OC)c2)C2=C(Nc3n[nH]cc31)[C@H](F)C(C)(C)CC2=O (single isomer, unassigned)
target,observed,technique,baseline,remaining binding
"Serine/threonine-protein kinase pim-3 (PIM3, Homo sapiens, UniProt Q86V86)",binding,competition with immobilised ligand,,100%
"Cytoplasmic tyrosine-protein kinase BMX (BMX, Homo sapiens, UniProt P51813)",kinase binding,KINOMEscan,DMSO control,100%
"Serine/threonine-protein kinase SIK1 (SIK1, Homo sapiens, UniProt P57059)",,KINOMEscan,,100%
"Hepatocyte growth factor receptor (MET, Homo sapiens, UniProt P08581, M1250T)",kinase binding,KINOMEscan,DMSO control,77%
"STE20-like serine/threonine-protein kinase (SLK, Homo sapiens, UniProt Q9H2G2)",binding,competition with immobilised ligand,,89%
"Epidermal growth factor receptor (EGFR, Homo sapiens, UniProt P00533, L858R/T790M)",binding,competition with immobilised ligand,,76%
"Bone morphogenetic protein receptor type-2 (BMPR2, Homo sapiens, UniProt Q13873)",kinase binding,KINOMEscan,DMSO control,66%
"Tyrosine-protein kinase Mer (MERTK, Homo sapiens, UniProt Q12866)",binding,competition with immobilised ligand,,88%
"NT-3 growth factor receptor (NTRK3, Homo sapiens, UniProt Q16288)",kinase binding,KINOMEscan,DMSO control,88%
"Receptor tyrosine-protein kinase erbB-4 (ERBB4, Homo sapiens, UniProt Q15303)",binding,competition with immobilised ligand,,69%
"Mast/stem cell growth factor receptor Kit, autoinhibited (KIT, Homo sapiens, UniProt P10721)",binding,competition with immobilised ligand,,72%
"Non-receptor tyrosine-protein kinase TYK2, JH2 pseudokinase domain (TYK2, Homo sapiens, UniProt P29597)",kinase binding,KINOMEscan,DMSO control,45%
"Ribosomal protein S6 kinase alpha-2, C-terminal kinase domain (RPS6KA2, Homo sapiens, UniProt Q15349)",kinase binding,KINOMEscan,DMSO control,100%
"Casein kinase I isoform gamma-3 (CSNK1G3, Homo sapiens, UniProt Q9Y6M4)",binding,competition with immobilised ligand,,74%

# Series 2 — observed: thermal unfolding; technique: differential scanning fluorimetry; concentration: 5.5 µM; direction: higher = more unfolded
# SMILES: C[C@@H]1CN(c2ccc(-c3cc(C(=O)NCCOCCOCCOCCOCCNC(=O)Cn4cc(-c5[nH]cc(C(=O)N[C@@H](CC(N)=O)c6ccc(F)c(Cl)c6)c5-c5ccc(Cl)cc5F)cn4)ccc3F)cc2NC(=O)c2c[nH]c(=O)cc2C(F)(F)F)C[C@H](C)N1C
# WDR5: WD repeat-containing protein 5 (WDR5, Homo sapiens, UniProt P61964)
# DCAF1: DDB1- and CUL4-associated factor 1 (DCAF1, Homo sapiens, UniProt Q9Y4B6)
# UniProt Q9Y4B6, sequence (whole entry, looked up): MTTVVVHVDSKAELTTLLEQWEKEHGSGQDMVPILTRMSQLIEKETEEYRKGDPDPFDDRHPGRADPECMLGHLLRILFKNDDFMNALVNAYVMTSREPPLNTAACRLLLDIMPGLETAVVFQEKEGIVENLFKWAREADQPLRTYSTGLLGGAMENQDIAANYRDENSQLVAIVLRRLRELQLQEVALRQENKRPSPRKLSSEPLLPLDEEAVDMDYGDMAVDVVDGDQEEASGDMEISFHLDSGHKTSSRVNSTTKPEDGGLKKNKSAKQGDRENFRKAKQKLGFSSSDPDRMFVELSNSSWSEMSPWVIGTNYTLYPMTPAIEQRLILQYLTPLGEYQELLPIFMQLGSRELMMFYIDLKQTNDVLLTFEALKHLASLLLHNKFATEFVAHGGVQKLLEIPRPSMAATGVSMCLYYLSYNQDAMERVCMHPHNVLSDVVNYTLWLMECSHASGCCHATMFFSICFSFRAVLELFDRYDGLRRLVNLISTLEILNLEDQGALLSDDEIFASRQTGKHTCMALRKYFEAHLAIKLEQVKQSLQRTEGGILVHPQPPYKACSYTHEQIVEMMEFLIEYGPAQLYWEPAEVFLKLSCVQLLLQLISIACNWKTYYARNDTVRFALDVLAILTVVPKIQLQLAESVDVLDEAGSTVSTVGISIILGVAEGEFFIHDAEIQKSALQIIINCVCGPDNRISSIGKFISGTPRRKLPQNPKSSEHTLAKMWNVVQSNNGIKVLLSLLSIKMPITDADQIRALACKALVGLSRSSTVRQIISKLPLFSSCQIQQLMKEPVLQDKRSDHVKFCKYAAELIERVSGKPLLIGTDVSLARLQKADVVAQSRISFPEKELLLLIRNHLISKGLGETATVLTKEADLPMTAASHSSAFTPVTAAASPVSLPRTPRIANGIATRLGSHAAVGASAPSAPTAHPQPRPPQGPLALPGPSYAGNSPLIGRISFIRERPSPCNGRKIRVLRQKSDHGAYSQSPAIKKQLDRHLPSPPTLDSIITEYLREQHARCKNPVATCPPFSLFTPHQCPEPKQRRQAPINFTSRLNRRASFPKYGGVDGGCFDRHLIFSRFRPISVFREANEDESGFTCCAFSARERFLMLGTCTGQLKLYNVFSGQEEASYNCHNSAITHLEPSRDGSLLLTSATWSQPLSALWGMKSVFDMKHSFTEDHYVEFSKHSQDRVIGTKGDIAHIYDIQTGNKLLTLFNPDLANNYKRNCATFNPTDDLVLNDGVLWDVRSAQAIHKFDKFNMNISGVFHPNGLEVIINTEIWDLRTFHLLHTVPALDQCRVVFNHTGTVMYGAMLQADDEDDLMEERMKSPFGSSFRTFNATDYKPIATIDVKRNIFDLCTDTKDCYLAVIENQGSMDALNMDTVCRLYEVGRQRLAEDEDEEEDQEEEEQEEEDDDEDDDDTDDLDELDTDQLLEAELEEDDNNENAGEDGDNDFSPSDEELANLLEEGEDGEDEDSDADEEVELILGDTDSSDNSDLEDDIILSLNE
target,temperature,SYPRO Orange fluorescence [a.u.]
WDR5,68.81 °C,6740
DCAF1,79.01 °C,45100
DCAF1,67.41 °C,56600
DCAF1,38 °C,9660
DCAF1,60.01 °C,37900
DCAF1,25.2 °C,7440
DCAF1,89.01 °C,36100
DCAF1,47.4 °C,13400
WDR5,32 °C,14500
WDR5,93.41 °C,39800
DCAF1,91.61 °C,33600

# Series 3 — observed: binding; technique: competition with immobilised ligand; concentration: 1 µM
# SMILES: COc1cc(-c2nc3ccc(C(=O)NCCCN4CCN(c5cccc(C)c5C)CC4)cc3n2C2CCC2)cc(OC)c1OC
target,remaining binding
"Cyclin-dependent kinase 4 (CDK4, Homo sapiens, UniProt P11802)",80%
"Serine/threonine-protein kinase 10 (STK10, Homo sapiens, UniProt O94804)",45%
"Serine/threonine-protein kinase WNK2 (WNK2, Homo sapiens, UniProt Q9Y3S1)",86%
"Activin receptor type-1B (ACVR1B, Homo sapiens, UniProt P36896)",66%
"Ephrin type-A receptor 4 (EPHA4, Homo sapiens, UniProt P54764)",95%
"Dual specificity protein kinase CLK2 (CLK2, Homo sapiens, UniProt P49760)",96%
"Serine/threonine-protein kinase MRCK alpha (CDC42BPA, Homo sapiens, UniProt Q5VT25)",100%
"Serine/threonine-protein kinase 3 (STK3, Homo sapiens, UniProt Q13188)",94%
"Peripheral plasma membrane protein CASK (CASK, Homo sapiens, UniProt O14936)",89%
"Epidermal growth factor receptor (EGFR, Homo sapiens, UniProt P00533, A750P/del747-749)",58%
"Receptor-interacting serine/threonine-protein kinase 1 (RIPK1, Homo sapiens, UniProt Q13546)",100%
"Tyrosine-protein kinase ABL1, non-phosphorylated (ABL1, Homo sapiens, UniProt P00519)",83%
"Ribosomal protein S6 kinase alpha-2, C-terminal kinase domain (RPS6KA2, Homo sapiens, UniProt Q15349)",99%
"Serine/threonine-protein kinase WNK3 (WNK3, Homo sapiens, UniProt Q9BYP7)",98%
"Serine/threonine-protein kinase Nek2 (NEK2, Homo sapiens, UniProt P51955)",93%
"Cyclin-dependent kinase 16 (CDK16, Homo sapiens, UniProt Q00536)",90%
"Glycogen synthase kinase-3 beta (GSK3B, Homo sapiens, UniProt P49841)",83%
"Calcium/calmodulin-dependent protein kinase type II subunit gamma (CAMK2G, Homo sapiens, UniProt Q13555)",99%
"Ephrin type-B receptor 6 (EPHB6, Homo sapiens, UniProt O15197)",77%
"Serine/threonine-protein kinase VRK2 (VRK2, Homo sapiens, UniProt Q86Y07)",75%
"LIM domain kinase 1 (LIMK1, Homo sapiens, UniProt P53667)",92%
"Tyrosine-protein kinase JAK3, JH1 (JAK3, Homo sapiens, UniProt P52333)",82%

# Series 4 — cell line: HCC1569; technique: in-cell western; refers to: CDK1 phospho-Thr14
# Structure (SMILES): Cc1ccc(O)c(C)c1-c1cnc2[nH]c(-c3cnc(N4CCC(CN5CCN(c6ccc(NC7CCC(=O)NC7=O)c(F)c6)CC5)CC4)nc3)cc2c1C#N (racemic)
concentration,pCDK1 (Thr14) level
111.11 nM,56.8% and 65.6%
333.33 nM,90.9% and 97.8%
37.04 nM,31.5% and 23.6%
1000 nM,106% and 108%
1.37 nM,7.72% and 9.75%
4.12 nM,19.1% and 20.5%
12.35 nM,15.7% and 29.4%
0.457 nM,10.5% and 11.1%

# Repeated from above (series 3):
target,remaining binding
"Serine/threonine-protein kinase WNK3 (WNK3, Homo sapiens, UniProt Q9BYP7)",98%
"Serine/threonine-protein kinase Nek2 (NEK2, Homo sapiens, UniProt P51955)",93%
"Cyclin-dependent kinase 16 (CDK16, Homo sapiens, UniProt Q00536)",90%
"Glycogen synthase kinase-3 beta (GSK3B, Homo sapiens, UniProt P49841)",83%
"Calcium/calmodulin-dependent protein kinase type II subunit gamma (CAMK2G, Homo sapiens, UniProt Q13555)",99%
"Ephrin type-B receptor 6 (EPHB6, Homo sapiens, UniProt O15197)",77%
"Serine/threonine-protein kinase VRK2 (VRK2, Homo sapiens, UniProt Q86Y07)",75%
